Measured values gathered from unrelated publications.
Compare with care: the assays were run in different laboratories. ± gives the spread as reported. In brackets after ≈: the same amount, converted by molar mass.

CCCc1ccc(C(=O)N2c3ccc(F)cc3[C@@H](Nc3ccccc3)C[C@H]2C)cc1 — mortality (Aedes albopictus; 1 µM, 72 h, second-instar larvae; relative to: Abbott-corrected control): 81 ± 8%
CN[C@@H]1[C@H](O)[C@H](NC)[C@H]2O[C@]3(O)[C@H](O[C@@H]2[C@H]1O)O[C@H](C)C[C@@]3(O)CNCCc1ccc(F)cc1 — MIC (Mycobacteroides abscessus; ATCC 19977 ∆tap; 120 h): 16 mg/L (≈ 33 µM)
O=[N+]([O-])c1ccc(/C=N/N=C/c2ccc(O)cc2)s1 — day of death (Trypanosoma congolense; IL3000, mouse; oral, 100 mg/kg daily for 7 days, from day 4 post-infection): 9 days post-infection
OC[C@H]1O[C@@H]([Se][Se][C@@H]2O[C@H](CO)[C@@H](O)[C@H](O)[C@H]2O)[C@H](O)[C@@H](O)[C@@H]1O — inhibition (Trypanosoma brucei; parasite growth, flow cytometry; 5 µM, 24 h): 43%
CS(=O)(=O)c1ccc(/C=N/NC(=O)Cn2ccc(=O)c3ccccc32)cc1 — inhibition (Sclerotinia sclerotiorum; microbial growth; 50 µg/mL): 7.3%
COc1ccccc1-c1n[nH]c2nc(N[C@H]3CC[C@H](NS(=O)(=O)CC(C)C)CC3)ncc12 — EC50 (Leishmania donovani; parasite growth; promastigote): 0.00631 µM
CC(=O)OC[C@H]1O[C@@H]([Se][Se][C@@H]2O[C@H](COC(C)=O)[C@@H](OC(C)=O)[C@H](OC(C)=O)[C@H]2OC(C)=O)[C@H](OC(C)=O)[C@@H](OC(C)=O)[C@@H]1OC(C)=O — viability (Trypanosoma brucei; parasite growth, flow cytometry; 5 µM, 24 h): 2.7%
Nc1ncnc2c1c(F)cn2[C@@H]1O[C@H](CO)[C@@H](O)[C@H]1O — EC50 (Trypanosoma congolense; parasite growth, resazurin; 72 h): 0.45 µM
CC[C@@H](C)[C@@H](NC(=O)[C@@H](CC(C)C)NC(=O)[C@@H](CCCCN)NC(=O)[C@@H](CC(C)C)NC(=O)[C@@H](CC(C)C)NC(=O)[C@H](NC(=O)[C@@H](Cc1c[nH]cn1)NC(=O)[C@@H](CC(C)C)NC(=O)[C@@H](CCCCN)NC(=O)[C@H](NC(=O)[C@@H](CCCCN)NC(=O)[C@@H](CCCCN)NC(=O)[C@@H](CC(C)C)NC(=O)[C@@H](CO)NC(=O)[C@@H](CCCCN)NC(=O)[C@@H](Cc1ccccc1)NC(=O)[C@H](NC(=O)[C@@H](CCCCN)NC(=O)[C@@H](CC(C)C)NC(=O)[C@@H](Cc1ccccc1)NC(=O)[C@@H](CO)NC(=O)[C@@H](CCCCN)NC(=O)[C@@H](Cc1c[nH]c2ccccc12)NC(=O)[C@@H](CCCCN)NC(C)=O)[C@H](C)O)[C@H](C)O)[C@H](C)O)C(=O)N[C@H](CO)C(=O)N[C@H](CO)C(N)=O — MIC50 geometric mean (ascomycota fungi; three species): 7.2 mg/L (≈ 2.29 µM)
Nc1ccn(C[C@@H](CO)OCP(=O)(O)OCCCS(=O)(=O)CCCCCCCCCCCCCC2CCC2)c(=O)n1 — EC90 (human betaherpesvirus 5; drug-resistant clinical isolates): < 0.001 µM
CCn1c2ccccc2c2cc(/C=N/NC(=O)Cn3ccc(=O)c4ccccc43)ccc21 — inhibition (Sclerotinia sclerotiorum; microbial growth; 50 µg/mL): 43.9%
C[C@@H]1C[C@H](Nc2ccccc2)c2cc(F)ccc2N1C(=O)c1ccccc1 — mortality (Aedes albopictus; 1 µM, 72 h, second-instar larvae; relative to: Abbott-corrected control): 56 ± 31%
CC[C@H](C)[C@H](N)C1=N[C@H](C(=O)N[C@@H](CC(C)C)C(=O)N[C@H](CCC(=O)O)C(=O)N[C@H](C(=O)N[C@H]2CCCCNC(=O)[C@H](CC(N)=O)NC(=O)[C@@H](CC(=O)O)NC(=O)[C@H](Cc3c[nH]cn3)NC(=O)[C@@H](Cc3ccccc3)NC(=O)[C@H]([C@@H](C)CC)NC(=O)[C@@H](CCCN)NC2=O)[C@@H](C)CC)CS1 — MIC50 (Enterococcus faecium; vanA clinical isolates; with: ZnSO4 0.3 mM): 8 mg/L (≈ 5.62 µM)
CN1CC(=O)N=C1N.C[C@H](CCC(=O)O)[C@H]1CC[C@H]2[C@@H]3[C@H](O)C[C@@H]4C[C@H](O)CC[C@]4(C)[C@H]3CC[C@]12C — inhibition zone diameter (Bacillus cereus; TISTR 035; 1 mg per disc, 18 to 24 h, 37 °C, 6 mm disc): 12.4 ± 0.7 mm
CC[C@H](C)[C@H](NC(=O)[C@H](CCCCN)NC(=O)[C@H](CCCCN)NC(=O)[C@H](CC(C)C)NC(=O)[C@H](CCCCN)NC(=O)[C@H](CCC(=O)O)NC(=O)[C@H](CCCCN)NC(=O)[C@@H](NC(=O)[C@H](CCCCN)NC(=O)[C@H](CC(N)=O)NC(=O)[C@H](CCCNC(=N)N)NC(=O)[C@H](Cc1ccccc1)NC(=O)[C@H](CCCCN)NC(=O)[C@H](CCCNC(=N)N)NC(=O)[C@H](CC(C)C)NC(=O)[C@H](CCCNC(=N)N)NC(=O)[C@H](CCCCN)NC(=O)[C@H](CCCNC(=N)N)NC(=O)[C@H](CC(C)C)NC(=O)[C@@H](N)CCCNC(=N)N)[C@@H](C)CC)C(=O)NCC(=O)N[C@@H](CCC(N)=O)C(=O)N[C@@H](CCCCN)C(=O)N[C@H](C(=O)N[C@@H](CCC(N)=O)C(=O)NCC(=O)N[C@@H](Cc1ccccc1)C(=O)N[C@H](C(=O)N1CCC[C@H]1C(=O)N[C@@H](CCCCN)C(=O)N[C@@H](CC(C)C)C(=O)N[C@@H](CCC(N)=O)C(=O)N1CCC[C@H]1C(=O)N[C@@H](CO)C(=O)N[C@@H](CCCCN)C(=O)N[C@@H](CCC(N)=O)C(=O)N[C@@H](CO)C(=O)O)C(C)C)[C@@H](C)CC — lethal concentration (Streptomyces scabiei; inhibition zone; CGMCC 4.176; LB agar, overnight): 8.66 µM
O=C1/C(=N\NC(=S)NN=Cc2cccs2)c2ccccc2N1Cc1ccccc1 — EC50 (Coxsackievirus B4; viral replication; HeLa): > 4 µM
CC[C@H](C)[C@H](NC(=O)[C@H](CC(C)C)NC(=O)CNC(=O)[C@H](Cc1c[nH]cn1)NC(=O)[C@@H](NC(=O)[C@H](Cc1ccccc1)NC(=O)[C@H](CC(N)=O)NC(=O)[C@H](Cc1c[nH]c2ccccc12)NC(=O)[C@@H](NC(=O)[C@H](Cc1c[nH]cn1)NC(=O)CNC(=O)[C@H](Cc1c[nH]c2ccccc12)NC(=O)[C@@H](N)CC(C)C)[C@@H](C)CC)C(C)C)C(N)=O — IC50 (Herpes simplex virus 1; viral attachment, plaque reduction; Vero, F; 1 h, 4 °C): 1.43 mg/L (≈ 0.899 µM)
Cc1cn(C2CC(N(C)C)C(CO)O2)c(=O)[nH]c1=O (stereo not shown) — EC50 (coxsackievirus B4; viral replication; HeLa): > 0.37 µM
CC[C@H](C)[C@H](NC(=O)[C@@H](NC(=O)CN)C(C)C)C(=O)N[C@@H](Cc1ccccc1)C(=O)N[C@@H](CC(N)=O)C(=O)N[C@@H](C)C(=O)N[C@@H](CC(C)C)C(=O)N[C@@H](CCCCN)C(=O)NCC(=O)N[C@H](C(=O)N[C@@H](C)C(=O)N[C@@H](CCCCN)C(=O)N[C@H](C(=O)N[C@H](C(=O)N[C@@H](C)C(=O)N[C@@H](C)C(=O)N[C@@H](CCC(N)=O)C(=O)N[C@@H](CC(C)C)C(=O)N[C@@H](CC(C)C)C(=O)N[C@@H](CCCCN)C(=O)N[C@@H](CCCCN)C(=O)N[C@@H](C)C(=O)N[C@@H](CCCNC(=N)N)C(=O)N[C@H]1CSSC[C@@H](C(=O)O)NC(=O)[C@H](CO)NC(=O)[C@H](CCCCN)NC(=O)[C@H](CC(=O)O)NC(=O)[C@H](CC(C)C)NC(=O)[C@H](CCCCN)NC1=O)C(C)C)[C@@H](C)O)C(C)C — MBEC (Staphylococcus aureus; persister cells in biofilm; MRSA ATCC BAA-1707; with: vancomycin 4 µg/mL): > 512 µM
NNC(=O)/C=C/c1ccc(N)cc1 — LC90 (Aedes aegypti; larvicidal activity; third instar larvae; 48 h): 259 ppm
C[C@@H]1C[C@H](Nc2ccccc2)c2cc(F)ccc2N1C(=O)c1ccc([N+](=O)[O-])cc1 — mortality (Aedes albopictus; 1 µM, 72 h, second-instar larvae; relative to: Abbott-corrected control): 34 ± 23%
CC(C)C[C@H](NC(=O)[C@H](CO)NC(=O)[C@H](Cc1c[nH]c2ccccc12)NC(=O)[C@H](Cc1c[nH]c2ccccc12)NC(=O)[C@H](CC(=O)O)NC(=O)[C@H](CC(C)C)NC(=O)CN)C(=O)O — biofilm formation (Streptococcus mutans; crystal violet; UA159; 2 µM, 24 h, with: CSP-18 15 nM; relative to: untreated): no effect

Excerpt of the above:
C[C@@H]1C[C@H](Nc2ccccc2)c2cc(F)ccc2N1C(=O)c1ccccc1 — mortality (Aedes albopictus; 1 µM, 72 h, second-instar larvae; relative to: Abbott-corrected control): 56 ± 31%
CC[C@H](C)[C@H](N)C1=N[C@H](C(=O)N[C@@H](CC(C)C)C(=O)N[C@H](CCC(=O)O)C(=O)N[C@H](C(=O)N[C@H]2CCCCNC(=O)[C@H](CC(N)=O)NC(=O)[C@@H](CC(=O)O)NC(=O)[C@H](Cc3c[nH]cn3)NC(=O)[C@@H](Cc3ccccc3)NC(=O)[C@H]([C@@H](C)CC)NC(=O)[C@@H](CCCN)NC2=O)[C@@H](C)CC)CS1 — MIC50 (Enterococcus faecium; vanA clinical isolates; with: ZnSO4 0.3 mM): 8 mg/L (≈ 5.62 µM)
CN1CC(=O)N=C1N.C[C@H](CCC(=O)O)[C@H]1CC[C@H]2[C@@H]3[C@H](O)C[C@@H]4C[C@H](O)CC[C@]4(C)[C@H]3CC[C@]12C — inhibition zone diameter (Bacillus cereus; TISTR 035; 1 mg per disc, 18 to 24 h, 37 °C, 6 mm disc): 12.4 ± 0.7 mm
